Experimental data from different studies.
A part holds a random share of what one study measured.

Series 1 — method: RNA Bind-n-Seq; molecule type: RNA; medium: in vitro; tested at: 365 nM; baseline: no-protein control; reading: higher = stronger binding
Target: RNA binding protein fox-1 homolog 2, RRM domain, GST-SBP tag (RBFOX2, Homo sapiens, UniProt O43251-10, residues 100-194)
Setting: natural RNA segment, single round, ends assumed
Residues (chain): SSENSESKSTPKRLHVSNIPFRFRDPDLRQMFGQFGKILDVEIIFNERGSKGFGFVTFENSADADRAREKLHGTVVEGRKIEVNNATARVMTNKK
Sequence	RBNS enrichment (R)
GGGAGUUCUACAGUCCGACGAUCAGCAGAGUAGUAUUUUUAUAUUUAAAUGUUAAAAACAAAAAAGUUAUAUAUAUAUGGAUGUGUGGAUGUAUGUCUUUCUAAUUGAGAGAACCAUCCUAUUCACUGGGUGCUGGAAUUCUCGGGUGCCAA	0.509
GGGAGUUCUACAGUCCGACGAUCUCGGGGGACCUGGCUUUGAGCUAGUUGGCCCCCAGCCCCAGCUGGUUUUUCUAAGGGUCAACUCAGACUGCCCUGUACCCUGGAAAAAUAGCAAUAGCAGCCCCAUCUACUGGAAUUCUCGGGUGCCAA	0.495
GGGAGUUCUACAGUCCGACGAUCUUGGAAGCCAGGUGCAGGGCCAGGCAUCUGCAUUGUGGGAUGUUAAUGGCACUUUUGUCUUGUAGCUAUUUUGAGAUGUGGUCCAGAGCAUUUCAGCUGGGAGAUCUCCCUGGAAUUCUCGGGUGCCAA	1.31
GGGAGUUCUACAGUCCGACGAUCGGGGGCGGGGUACUCUCCCUGUCGCUAGGUGAGCACUGGCUUUGUCCAACAUCAGGGAACACAAGGCUCUGAAGUGGCCCUGUGUGGAAGGUUGGCAGCUGCCUGGCCUCUGGAAUUCUCGGGUGCCAA	0.377
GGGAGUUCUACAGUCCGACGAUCCCAUGUAACAGAAAUUACUGCCUGAAAUGUUGGCAUUCAUAGUAAUUACGGAUGUAAUUCUGUGUAUCUUGCUGUGACUCCGAAGACUGUAGUACUGGUGUCAUGGAAAUUGGAAUUCUCGGGUGCCAA	0.876
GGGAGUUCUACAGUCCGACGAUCGACCUCUUAGGCUACAAUAAACUGUACCAAACUAAACUGACAGUCCUUCGAUAAUAUGAAACAUUAAUUUACAAGGACCCGUUAGGGCUUCAAUGAUGCUGAGUCUGGAAUGGAAUUCUCGGGUGCCAA	0.277
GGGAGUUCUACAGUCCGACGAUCUUGAGCAGAGACAAACCUUUAUUCAUAGUGUCUACAGGACAUAUGAAGAGUGCAAUGGCAAAACAAGAGCAAAAAGCACUUCCUCCCAUGACCUUACAGUAACCAUACUGUGGAAUUCUCGGGUGCCAA	0.31
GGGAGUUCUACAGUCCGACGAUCUGCCUUUCAUCACCAUUUUUCCUGAGUAGGGCUUAGUUUUAUUCUGGAAAGACAUCUCCAAGGUGAGGUCCACCCCCACAGCAGACCUCAAGUAGAAAUUGCCCAAUUUUUGGAAUUCUCGGGUGCCAA	0.313
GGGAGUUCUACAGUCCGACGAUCUGCUAUAUAUUGAAUGGGCCCUUUAGUUUUCUCUUAGUUCUGACCUGUAUAUAUUGCUUUAAUAGAGCCACGAUUUGUAUAUGUGCUGUUCAUUAGAGCAAAUUCAGGGGUGGAAUUCUCGGGUGCCAA	1.44
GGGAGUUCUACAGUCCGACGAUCUGCUCAGCACAGAGGCCAGCUUGCGGGAGCUCUGCGUCUCAGGCAGGUGGGACCUCUGAGACACUGGUCCCCACAGAGCUGUAAGUGAGAAGAGCAGUUUGUCCACUCUGUGGAAUUCUCGGGUGCCAA	0.407
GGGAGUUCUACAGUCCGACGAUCUCUUCUGUUAAGAGUGACUGUUCAUUCAGGGAGCUGAGAAUUCUGGCACAGAUCUUUGUCCCAAGCCUUCCUACUAUUCUUGCCUUAUUCUUAGUAUGCGUUGCAUCGGGUGGAAUUCUCGGGUGCCAA	0.607

Series 2 — method: protein-binding microarray; molecule type: double-stranded DNA, one strand shown; medium: in vitro; tested at: 250 nM; setting: 60-bp whole probe; added: salmon DNA 0.4 mg/ml; baseline: random background probes; reading: higher = stronger binding; all sequences stand within: GCCTAGCAC … GTCTTGATTCGCTTGACGCTGCTG
Target: Interferon regulatory factor 5, full length, phosphomimetic (IRF5, Homo sapiens, UniProt Q13568-2, residues 1-514, K96S/S451D/S453D/S456D/S462D)
Sequence	log fluorescence
GACGGTTTCGACGTTCGGGACGTGCTA	4.89 z-score
TTAGGTATCGGGTTACGGTTAGTGCTA	4.4 z-score
TGGCAGCATTCTTGGAAATCGTGCTAG	-0.417 z-score
TCACATTTATATCTTTGACTGTGCTAG	0.898 z-score
GACGGTTTCGACACTGGGTACGTGCTA	4.68 z-score
TTAGTTTTCGACACTGGGTTAGTGCTA	3.4 z-score
GACGGTCTCGGTCTCGGGATGTGCTAG	0.16 z-score

Series 3 — method: RNA Bind-n-Seq; molecule type: RNA; medium: in vitro; tested at: not given; baseline: input RNA pool; reading: higher = stronger binding
Target: RING finger protein unkempt homolog, zinc fingers 1-6, GST-SBP tag (UNK, Homo sapiens, UniProt Q9C0B0, residues 30-357)
Chain of UniProt Q9C0B0 (30-357, looked up): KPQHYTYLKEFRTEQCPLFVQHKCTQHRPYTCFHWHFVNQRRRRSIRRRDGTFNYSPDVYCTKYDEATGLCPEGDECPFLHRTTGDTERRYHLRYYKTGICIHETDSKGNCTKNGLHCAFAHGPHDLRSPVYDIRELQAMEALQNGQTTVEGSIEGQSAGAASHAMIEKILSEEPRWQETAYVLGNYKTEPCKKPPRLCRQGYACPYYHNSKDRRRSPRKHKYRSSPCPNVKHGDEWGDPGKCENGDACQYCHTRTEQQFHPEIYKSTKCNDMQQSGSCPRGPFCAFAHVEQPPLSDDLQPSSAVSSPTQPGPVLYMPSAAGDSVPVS
Setting: RNA with constant flanks, human and mouse sites, ends assumed
Sequence	bound/input enrichment [ratio]
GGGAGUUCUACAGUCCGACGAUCGUUGCUGCCUUUAUGGACAUGGGUACCAAUUGCUUUUUGUAAUAUGGUAAAAAUGUGAGCUAGCACUUCUGCAUUGAUUUUUUUUUUUUUGUUUAACAUGUAUUCAGAUUGAGAAUAUGACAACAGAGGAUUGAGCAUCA	0.483
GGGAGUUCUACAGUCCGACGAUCACAAAGCAAGCAGCCUUUAAAGCUGUCCCUGAAGUGUGUCGCAUUCCGACCCACCUCUUCACUUUUAUCCAGUUUAAGAAAGACCUGAAGGAGAGCAUGAAGUGUGGCAUGUGGGGUCGCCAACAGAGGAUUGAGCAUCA	0.174
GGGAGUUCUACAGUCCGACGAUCGAAAAGAAUGUGCUGUUUUCACAUCUUGAUGAUAAUGAGAGAAGUGAUAUUUUUGAUGCCAUGUUUUCGGUCUCCUUUAUCGCAGGAGAGACUGUGAUUCAGCAAGGUGAUGAAGGGGAUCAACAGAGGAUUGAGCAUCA	0.219
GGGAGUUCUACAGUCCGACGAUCAAUGUUUACUGUAGUGUAUCUGUACAGAUAACAUGUAUUUUUAAAGGAAACACGGAGUUGAAGCUAUUUUUUCCUGCAUUUUGGAUUGACCUGAGGAACAUUCCGUUUGAAACGUGCUCGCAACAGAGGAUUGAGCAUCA	0.155
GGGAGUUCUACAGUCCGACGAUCUGUAUUAAGAACCGAUGAAAAAAAUUCUCCUGUAACAUUUUUUUAAGAAAACUUUGUUUGUUUAAAGAAAAAGUAUUGUAUAAAUUAUAAUUUUUAUUUAAAUAAACCUAAAAUGCUUUGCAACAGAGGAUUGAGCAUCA	0.292
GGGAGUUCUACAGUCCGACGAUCAUGAAAUCAUCCUGUGAGUUAUUUCCUCCAUAAUAACCCUGCAUUUCCCAUUAAUCUACAUAUCUUCCCACAGCAGCUUUGCUCAGUGAUACCCACAUGGGAAAAAUCCCAGGGGAUGUUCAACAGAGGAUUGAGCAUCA	0.377
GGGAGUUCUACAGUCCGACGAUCUCCUGUGGGUUCUUGGGUGUGUUUGCCACAUCAAGAUUUUAGGGAAGGGGGGUAUAUGUGUAGUAGGGAUGCCGUUUGAAAACAGGCACUCUUCCCCUGAGGAUGGGAAAGGAGCUCUUCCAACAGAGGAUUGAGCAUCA	0.679
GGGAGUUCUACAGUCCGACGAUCAAAAAUGCAGUAGAAUGUAAUUCAGUGUUUGUUUAUUGGCUGUUUUUGACAGAUUGCUGAAAUUAAAUGAAUUGAAAGGGAAACUCAGAGUACCAGGGCAUUUUAUUAAAAGGCAAGGAGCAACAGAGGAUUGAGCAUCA	0.503

Mixed results
Molecule	target	assay	system	conditions	scale	measurement	value
PhoQ, residues 284 288 289 292 302 303 AGGCYF	PhoP, residues 12 14 15 18 19 STHWV (Escherichia coli, UniProt P23836)	Sort-seq, item: YFP reporter	E. coli	PhoQ-PhoP variant library, added: 10 µM Mg2+	baseline: high Mg2+ state, higher = stronger signaling	fold induction	23.2

For quick reference, copied from above (series 3):
Sequence	bound/input enrichment [ratio]
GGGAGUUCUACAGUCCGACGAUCAAUGUUUACUGUAGUGUAUCUGUACAGAUAACAUGUAUUUUUAAAGGAAACACGGAGUUGAAGCUAUUUUUUCCUGCAUUUUGGAUUGACCUGAGGAACAUUCCGUUUGAAACGUGCUCGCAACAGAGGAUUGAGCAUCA	0.155
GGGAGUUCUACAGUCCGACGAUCUGUAUUAAGAACCGAUGAAAAAAAUUCUCCUGUAACAUUUUUUUAAGAAAACUUUGUUUGUUUAAAGAAAAAGUAUUGUAUAAAUUAUAAUUUUUAUUUAAAUAAACCUAAAAUGCUUUGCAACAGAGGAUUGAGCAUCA	0.292
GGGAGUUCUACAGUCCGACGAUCAUGAAAUCAUCCUGUGAGUUAUUUCCUCCAUAAUAACCCUGCAUUUCCCAUUAAUCUACAUAUCUUCCCACAGCAGCUUUGCUCAGUGAUACCCACAUGGGAAAAAUCCCAGGGGAUGUUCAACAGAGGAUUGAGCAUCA	0.377
